Published values collected from several papers.
Each line is one published result; not all experiments were run side by side. ± marks the error that the study gave.
Cell line: HaCaT

CCn1cc(/C=C/c2ccc3ccccc3[n+]2CC)c2ccccc21 — IC50 (cell growth or viability, MTT; 24 h): 1.74 µM
CSCC[C@H](NC(=O)[C@@H]1CCCN1)C(=O)N[C@@H](CCCNC(=N)N)C(=O)O — viability (CCK-8; 100 µg/mL, 72 h, 0.4 % serum): 131 ± 3.74%
CCCCCCCCCCCCCCCCCC(=O)N[C@@H](CCCNC(=N)N)C(=O)N[C@@H](CCCNC(=N)N)C(=O)N[C@@H](CCCNC(=N)N)C(=O)N[C@@H](CCCNC(=N)N)C(=O)N[C@@H](CCCNC(=N)N)C(N)=O — IC50 (cytotoxicity): > 150 µg/mL
CCOP(=O)(OCC)C(Cc1cccc(F)c1F)Nc1cccc(C)c1 (stereo not shown) — IC50 (cell growth or viability, MTT; 48 h): 67.9 µM
CCCCCCCCCCCCCCCCCC(=O)N[C@@H](CCCCN)C(=O)N[C@@H](CCCCN)C(=O)N[C@@H](CCCCN)C(=O)N[C@@H](CCCCN)C(=O)N[C@@H](CCCCN)C(N)=O — IC50 (cytotoxicity): 52 µg/mL
Brc1ccc2nc3c4ccc[n+]5c4c4c(ccc[n+]4[Ru-4]546([n+]5ccccc5-c5cccc[n+]54)[n+]4ccccc4-c4cccc[n+]46)c3nc2c1.[O-][Cl+3]([O-])([O-])O.[O-][Cl+3]([O-])([O-])O — IC50 (cell growth or viability, MTT; 72 h): > 100 µM
CCCCN(CCCC)CC(O)COc1c2ccoc2c(OC)c2oc(CC)cc(=O)c12 (stereo not shown) — LDH release (25 µM, 72 h): 6.8%
NC(=O)C[C@H](N)C(=O)N[C@@H](Cc1ccccc1)C(=O)N[C@@H](Cc1ccccc1)C(=O)O — viability (CCK-8; 10 µg/mL, 72 h, 0.4 % serum): 135 ± 9.06%
CC(C)=CCc1c(-c2cc(O)c(O)cc2O)oc2c(CC=C(C)C)c(O)cc(O)c2c1=O — IC50 (cell growth or viability, MTT; 72 h): 92 µM
CCOP(=O)(OCC)C(Cc1ccccc1F)Nc1ccc(Cl)cc1 (stereo not shown) — IC50 (cell growth or viability, MTT; 48 h): > 100 µM
Oc1cc2c3c(c1)COc1cc(O)cc(c1-3)CC2 — IC50 (cell growth or viability, MTT; 48 h): 58.8 µM
CCCCCCCCCCCCCCCCCCCC(=O)N[C@@H](CCCCN)C(=O)N[C@@H](CCCCN)C(=O)N[C@@H](CCCCN)C(=O)N[C@@H](CCCCN)C(=O)N[C@@H](CCCCN)C(N)=O — IC50 (cytotoxicity): 35.9 µg/mL
CCOP(=O)(OCC)C(Cc1c(F)c(F)c(Sc2ccc(OC)cc2)c(F)c1F)Nc1ccccc1 (stereo not shown) — IC50 (cell growth or viability, MTT; 48 h): 19.8 µM

A few entries again:
CSCC[C@H](NC(=O)[C@@H]1CCCN1)C(=O)N[C@@H](CCCNC(=N)N)C(=O)O — viability (CCK-8; 100 µg/mL, 72 h, 0.4 % serum): 131 ± 3.74%
CCOP(=O)(OCC)C(Cc1ccccc1F)Nc1ccc(Cl)cc1 (stereo not shown) — IC50 (cell growth or viability, MTT; 48 h): > 100 µM
